{"data": "Measured values of several laboratories", "note": "Numbered parts are unrelated; each lists some results of a single study."}
{"data": "Sample 1", "target": "RNA binding protein fox-1 homolog 2, RRM domain, GST-SBP tag (RBFOX2, Homo sapiens, UniProt O43251-10, residues 100-194)", "method": "RNA Bind-n-Seq", "molecule type": "RNA", "matrix": "in vitro", "concentration": "365 nM", "setting": "natural RNA segment, single round, ends assumed", "baseline": "no-protein control", "reading": "higher = stronger binding", "Residues (chain)": "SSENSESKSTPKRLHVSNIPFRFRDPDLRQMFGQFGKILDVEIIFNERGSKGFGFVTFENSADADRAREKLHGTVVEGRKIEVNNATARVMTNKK"}
{"Strand": "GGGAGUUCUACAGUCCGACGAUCCGUGACUGUUUUAAAACACCAUAAUGAAUGUAUAAUUAAUUUAUGUUCAAGUAUUAAUAUUGUUACAAGGGAAAAGUAAUAUUAGGAUUGUUUGCUCUCCUGUCUGCCCCUGGAAUUCUCGGGUGCCAA", "RBNS enrichment (R)": 0.731}
{"Strand": "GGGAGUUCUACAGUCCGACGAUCUAAUUAAUGGAUCAUCAGCUUGACCUCUGUAAAGUGGCAUCUUAAAACUUUUACAGAUUUUUGCACAAAAAGUGGACAUUUAUUUUUCCUGUUUUUAAAACAGUUUUUCAUGGAAUUCUCGGGUGCCAA", "RBNS enrichment (R)": 1.1}
{"Strand": "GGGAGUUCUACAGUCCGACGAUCACAUAGAUGUAAAUAAGGAACAGUUUGUCACACCUGACCCCAGUGAGUGGGGGGAAGGGCAGCUGUUAUCUUGCCAAGCCUGGUUGUAAUUUGUAACCAUUUUCUAUUUGUGGAAUUCUCGGGUGCCAA", "RBNS enrichment (R)": 0.378}
{"Strand": "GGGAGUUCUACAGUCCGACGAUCCAUUUUCAUAAAACCGGUUAAUUUUGUAGUUUUAGCCAAAAAGUGCCCCCUUUUUACAACUGAAUUCAUCUAGCAUUUUCAUAUGGUGGAUUUAAACUGCUUAAAAAAGAUGGAAUUCUCGGGUGCCAA", "RBNS enrichment (R)": 1.51}
{"Strand": "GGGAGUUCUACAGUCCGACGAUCAGCCUGGUUAGAACUUGUUUCUAGUGCUAAUGCUCUGACCUAGUAUUUCCAUUGGAGAUCACUGUCCAGCCAUCUAAAGCCCUGUUAUUCGAGUCAAGCUUAUCCCCAUUUGGAAUUCUCGGGUGCCAA", "RBNS enrichment (R)": 0.279}
{"Strand": "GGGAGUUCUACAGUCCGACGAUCUCCAGGAAGGAGGAGCUUCCUACUUUUGAGUUUCUCUGUGGAAAUAAAACAUGAAUCUUGUUUCCCUCGACUUUCUCAAAUUUUAUUCUUUAAUGCUAUGUUGAUGGCCUUGGAAUUCUCGGGUGCCAA", "RBNS enrichment (R)": 0.435}
{"Strand": "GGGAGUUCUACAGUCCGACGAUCUAUAUAUAUUUAAGUACAGUUUUCAUCAGGAGGUUUUAAAGGCCAUAUUGCUAACCUCACCAAAAGGUUUCGGGAACUGGAGGAAGUAUUAAUGUACAACUCACCACUUCUGGAAUUCUCGGGUGCCAA", "RBNS enrichment (R)": 0.471}
{"Strand": "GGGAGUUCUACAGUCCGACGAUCAAGGCCUCCUCCCGUUUCUCAUCAGCUUGCCUGCUACCACUUUGCCUUCUGGCCUCCAGCUGGGCCAGGAAGCAAGGUGGGAACACCUCCUCGGCCUUGAAGGCCCAAUGUGGAAUUCUCGGGUGCCAA", "RBNS enrichment (R)": 0.398}
{"data": "Sample 2", "target": "Sal-like protein 4, full length isoform A (SALL4, Homo sapiens, UniProt Q9UJQ4, residues 1-1053)", "method": "universal PBM", "molecule type": "double-stranded DNA, one strand shown", "matrix": "in vitro", "concentration": "600 nM", "setting": "8-mer, flanks averaged, mean of replicates", "reading": "higher = stronger binding", "sequence of UniProt Q9UJQ4 (whole entry, looked up)": "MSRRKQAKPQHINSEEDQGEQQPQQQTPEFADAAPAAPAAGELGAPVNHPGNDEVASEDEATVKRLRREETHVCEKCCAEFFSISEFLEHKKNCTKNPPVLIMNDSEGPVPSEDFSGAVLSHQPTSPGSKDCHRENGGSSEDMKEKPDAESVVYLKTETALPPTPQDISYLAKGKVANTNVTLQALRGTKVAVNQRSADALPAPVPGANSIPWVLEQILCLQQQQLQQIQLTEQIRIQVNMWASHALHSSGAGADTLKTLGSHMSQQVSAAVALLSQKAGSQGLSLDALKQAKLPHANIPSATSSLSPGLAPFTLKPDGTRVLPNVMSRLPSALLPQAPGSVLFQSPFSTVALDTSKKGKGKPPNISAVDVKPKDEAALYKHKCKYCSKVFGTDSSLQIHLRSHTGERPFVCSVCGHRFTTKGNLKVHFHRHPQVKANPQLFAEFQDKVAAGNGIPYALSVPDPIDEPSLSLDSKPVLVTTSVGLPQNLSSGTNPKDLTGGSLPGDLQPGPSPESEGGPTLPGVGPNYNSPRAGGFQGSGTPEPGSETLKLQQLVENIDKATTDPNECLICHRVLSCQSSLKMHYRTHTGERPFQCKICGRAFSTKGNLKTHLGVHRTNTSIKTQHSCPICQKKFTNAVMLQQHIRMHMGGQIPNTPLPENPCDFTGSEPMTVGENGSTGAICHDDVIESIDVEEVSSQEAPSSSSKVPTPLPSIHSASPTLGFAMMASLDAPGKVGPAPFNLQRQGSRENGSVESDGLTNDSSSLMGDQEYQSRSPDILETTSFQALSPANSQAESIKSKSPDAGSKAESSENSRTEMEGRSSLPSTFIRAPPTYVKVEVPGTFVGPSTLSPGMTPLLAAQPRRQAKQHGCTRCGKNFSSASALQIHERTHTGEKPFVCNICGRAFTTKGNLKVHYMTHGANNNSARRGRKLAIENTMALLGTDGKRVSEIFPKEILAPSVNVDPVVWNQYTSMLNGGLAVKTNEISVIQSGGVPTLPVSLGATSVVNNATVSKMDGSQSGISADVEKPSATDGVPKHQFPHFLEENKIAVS"}
{"Strand": "CTAGTTTA", "E-score": 0.123}
{"Strand": "AAGGGGGA", "E-score": -0.163}
{"Strand": "GTCTGGGA", "E-score": -0.227}
{"Strand": "CATGCCGA", "E-score": 0.0102}
{"Strand": "ACGCAGGC", "E-score": -0.181}
{"Strand": "CAATCGAC", "E-score": -0.0395}
{"Strand": "CATCGCGA", "E-score": -0.0963}
{"Strand": "CTAGGAAG", "E-score": -0.121}
{"Strand": "CCCGCTTC", "E-score": -0.313}
{"Strand": "GAACTGAC", "E-score": -0.197}
{"Strand": "GCTTCTAC", "E-score": -0.0233}
{"Strand": "AAGGGACG", "E-score": -0.22}
{"Strand": "AACTAGGT", "E-score": 0.0341}
{"Strand": "GAGGGTCC", "E-score": -0.326}
{"Strand": "GGTAGCCA", "E-score": -0.197}
{"Strand": "AACAGTAC", "E-score": 0.112}
{"Strand": "AAATTACA", "E-score": 0.326}
{"Strand": "TATTGGAA", "E-score": 0.281}
{"Strand": "GTCAACCA", "E-score": 0.0141}
{"Strand": "AGACGTCT", "E-score": -0.0727}
{"Strand": "CAACAATG", "E-score": 0.0286}
{"Strand": "ATGACTAG", "E-score": 0.161}
{"Strand": "AACGGGTA", "E-score": 0.0289}
{"Strand": "ACGATCAT", "E-score": 0.0728}
{"Strand": "AGGCGAGC", "E-score": -0.299}
{"data": "Sample 3", "target": "Histone acetyltransferase KAT6A, winged helix 1, GST fusion (KAT6A, Homo sapiens, UniProt Q92794, residues 1-85)", "method": "protein binding microarray", "molecule type": "double-stranded DNA, one strand shown", "matrix": "in vitro", "concentration": "not given", "setting": "8-mer, flanks averaged, mean of 2 arrays, mostly near background", "baseline": "not given", "reading": "higher = stronger binding", "Target sequence (chain)": "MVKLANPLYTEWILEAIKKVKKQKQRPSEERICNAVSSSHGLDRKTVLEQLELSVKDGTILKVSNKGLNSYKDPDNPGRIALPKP"}
{"Strand": "CTCCCCCC", "E-score": -0.0662}
{"Strand": "ACCTTCTC", "E-score": -0.222}
{"Strand": "CTAGTGAA", "E-score": -0.219}
{"Strand": "CGCCCCTA", "E-score": 0.169}
{"Strand": "AAATGGAC", "E-score": -0.0427}
{"Strand": "GGCTGAGA", "E-score": -0.146}
{"Strand": "AACACTGG", "E-score": -0.0976}
{"Strand": "CTCCGGGA", "E-score": 0.132}
{"Strand": "CGGCGCAG", "E-score": 0.398}
{"Strand": "ACTCACTA", "E-score": -0.157}
{"Strand": "ACCATCTG", "E-score": -0.0762}
{"Strand": "CTTCTAAA", "E-score": -0.238}
{"Strand": "ACGCACCT", "E-score": -0.0265}
{"Strand": "CTAAATTC", "E-score": -0.131}
{"Strand": "ACAATGAT", "E-score": -0.069}
{"Strand": "CGTTATCA", "E-score": -0.0446}
{"Strand": "ACTTTTTC", "E-score": -0.0552}
{"Strand": "AGAGTAAG", "E-score": -0.0634}
{"Strand": "GCCCAACC", "E-score": -0.134}
{"data": "Sample 4", "target": "Fragile X messenger ribonucleoprotein 1, C-terminal low-complexity region (Fmr1, Mus musculus, UniProt P35922)", "method": "RNA Bind-n-Seq", "molecule type": "RNA", "matrix": "in vitro", "concentration": "200 nM", "setting": "whole 134-nt RNA, ends assumed", "together with": "150 mM LiCl", "baseline": "input library", "reading": "higher = stronger binding", "each molecule": "7-deaza-guanosine replaces G"}
{"Strand": "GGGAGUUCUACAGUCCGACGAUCACCAUGCAGGUGGGCAUCUUUGGGAAGUGGGGCAAGGGGGGGAUAGGGAGGGGGGUAACACUUUGGGAACAGGUGGUCCCAGGUCCUUUCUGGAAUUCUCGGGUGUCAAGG", "log2 enrichment": 0.471}
{"Strand": "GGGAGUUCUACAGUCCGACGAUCCCUGUGCUACACAUCGUAUGUACCGAAUCGGGGCCCCCCGGGCCCCCCGGGGCCCCCCGGGAAAGUAUUAUGUUACGCCGUUCGGAUCUGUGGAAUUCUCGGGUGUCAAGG", "log2 enrichment": -2.33}
{"Strand": "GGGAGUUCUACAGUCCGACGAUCUCAAGUCCUGUGCUACACAUCGUAUGUACCGAAUCGGGUUUUUGGGAGGGUGGGAAAGUAUUAUGUUACGCCGUUCGGAUCUGCACUUCCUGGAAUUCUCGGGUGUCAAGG", "log2 enrichment": -1.4}
{"Strand": "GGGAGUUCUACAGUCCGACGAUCUAACUUUAGAGGAGGAUCUGAUGGAUAUGGCAGUGGACGUGGCUUUGGGGAUGGCUAUAAUGGGUAUGGAGGAGGACCUGGAGGUGGCAAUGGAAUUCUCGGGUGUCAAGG", "log2 enrichment": -0.0417}
{"Strand": "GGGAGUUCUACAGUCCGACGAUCCCUGUGCUACACAUCGUAUGUACCGAAUCGGGUUUUUUUGGGUUUUUUUGGGAAAAAGGGAAAGUAUUAUGUUACGCCGUUCGGAUCUGCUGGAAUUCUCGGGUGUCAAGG", "log2 enrichment": -1.28}
{"Strand": "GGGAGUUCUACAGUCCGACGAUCGUCCUGUGCUACACAUCGUAUGUACCGAAUCGGGGAAAAGGGGAAAAGGGGAAAAGGGGAAAGUAUUAUGUUACGCCGUUCGGAUCUGCAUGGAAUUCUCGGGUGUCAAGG", "log2 enrichment": 0.93}
{"Strand": "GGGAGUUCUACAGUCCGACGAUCAGUCCUGUGCUACACAUCGUAUGUACCGAAUCGGGGAAAAAGGGAAAAAGGAAAAAGGAAAGUAUUAUGUUACGCCGUUCGGAUCUGCACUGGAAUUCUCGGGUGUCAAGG", "log2 enrichment": -0.57}
{"Strand": "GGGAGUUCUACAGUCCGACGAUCUAGCAAGCCAAAUUACAGCAGCAGAUGGACCUGCAGAAAAAUCACAUUUUCCGUCUGACUCAAGGACUGCAAGAAGCUCUAGAUCGGGCUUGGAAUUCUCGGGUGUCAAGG", "log2 enrichment": -3.93}
{"note": "Some of these lines once more (sample 3):"}
{"Strand": "GCCCAACC", "E-score": -0.134}
{"Strand": "ACCATCTG", "E-score": -0.0762}
{"Strand": "GGCTGAGA", "E-score": -0.146}
{"Strand": "ACCTTCTC", "E-score": -0.222}
{"Strand": "AACACTGG", "E-score": -0.0976}
